Measurements pooled from the literature.
A part holds a random share of what one study measured. Values joined by “and” are separate records of one study, mostly repeats; a detail may differ.
Chain of UniProt P14616 (whole entry, looked up): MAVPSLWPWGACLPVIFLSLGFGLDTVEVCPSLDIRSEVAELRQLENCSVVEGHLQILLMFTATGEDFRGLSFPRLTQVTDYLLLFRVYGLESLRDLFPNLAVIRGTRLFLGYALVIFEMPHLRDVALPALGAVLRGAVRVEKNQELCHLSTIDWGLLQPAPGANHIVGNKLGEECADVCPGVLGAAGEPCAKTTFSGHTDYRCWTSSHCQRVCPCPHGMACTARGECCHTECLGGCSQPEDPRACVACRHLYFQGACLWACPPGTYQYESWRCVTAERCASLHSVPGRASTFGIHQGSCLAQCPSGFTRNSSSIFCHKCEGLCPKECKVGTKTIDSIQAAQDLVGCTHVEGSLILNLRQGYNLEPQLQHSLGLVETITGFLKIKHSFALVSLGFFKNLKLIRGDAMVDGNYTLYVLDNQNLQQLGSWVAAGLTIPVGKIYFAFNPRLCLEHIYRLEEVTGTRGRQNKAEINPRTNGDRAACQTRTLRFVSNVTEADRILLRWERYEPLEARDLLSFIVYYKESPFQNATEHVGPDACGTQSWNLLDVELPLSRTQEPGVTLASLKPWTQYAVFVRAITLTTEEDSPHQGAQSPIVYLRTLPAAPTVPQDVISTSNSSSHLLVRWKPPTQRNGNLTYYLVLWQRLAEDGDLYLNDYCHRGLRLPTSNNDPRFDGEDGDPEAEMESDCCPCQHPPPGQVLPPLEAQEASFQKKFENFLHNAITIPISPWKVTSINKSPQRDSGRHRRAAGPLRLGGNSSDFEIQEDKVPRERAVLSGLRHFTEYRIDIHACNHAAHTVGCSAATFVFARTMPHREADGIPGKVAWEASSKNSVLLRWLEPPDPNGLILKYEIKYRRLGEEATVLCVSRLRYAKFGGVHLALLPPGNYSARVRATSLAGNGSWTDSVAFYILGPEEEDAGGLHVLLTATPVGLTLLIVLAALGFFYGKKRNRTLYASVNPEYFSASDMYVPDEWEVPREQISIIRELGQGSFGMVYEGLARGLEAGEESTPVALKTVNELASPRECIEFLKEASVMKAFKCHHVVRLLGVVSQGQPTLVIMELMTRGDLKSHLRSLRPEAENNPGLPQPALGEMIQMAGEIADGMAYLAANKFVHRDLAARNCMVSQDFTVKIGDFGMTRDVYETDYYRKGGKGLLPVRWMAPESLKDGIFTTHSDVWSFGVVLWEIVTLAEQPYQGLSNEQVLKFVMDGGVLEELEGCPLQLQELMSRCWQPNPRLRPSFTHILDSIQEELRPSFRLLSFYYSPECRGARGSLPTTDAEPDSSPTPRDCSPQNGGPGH
Chain of UniProt P15735 (whole entry, looked up): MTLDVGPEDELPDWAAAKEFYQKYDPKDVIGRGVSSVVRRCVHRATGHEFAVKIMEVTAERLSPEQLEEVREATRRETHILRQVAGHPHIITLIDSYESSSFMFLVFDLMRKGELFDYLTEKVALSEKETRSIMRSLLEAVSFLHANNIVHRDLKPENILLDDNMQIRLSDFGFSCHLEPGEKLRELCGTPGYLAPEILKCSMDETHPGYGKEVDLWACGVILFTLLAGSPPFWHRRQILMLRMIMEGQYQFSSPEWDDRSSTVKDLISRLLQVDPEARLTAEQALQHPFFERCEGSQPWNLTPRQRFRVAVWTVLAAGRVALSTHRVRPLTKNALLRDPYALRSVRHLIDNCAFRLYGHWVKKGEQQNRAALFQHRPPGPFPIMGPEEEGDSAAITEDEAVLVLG

Study 1
SMILES: O=C1CCC(N2Cc3c(ccc4c3OCC43CCN(Cc4ccccc4)CC3)C2=O)C(=O)N1 (centres unmarked)
Mode: degrader
Technique: HiBiT
Cell line: HEK293
Time: 6 h
SALL4: Sal-like protein 4 (SALL4, Homo sapiens, UniProt Q9UJQ4)
Chain of UniProt Q9UJQ4 (whole entry, looked up): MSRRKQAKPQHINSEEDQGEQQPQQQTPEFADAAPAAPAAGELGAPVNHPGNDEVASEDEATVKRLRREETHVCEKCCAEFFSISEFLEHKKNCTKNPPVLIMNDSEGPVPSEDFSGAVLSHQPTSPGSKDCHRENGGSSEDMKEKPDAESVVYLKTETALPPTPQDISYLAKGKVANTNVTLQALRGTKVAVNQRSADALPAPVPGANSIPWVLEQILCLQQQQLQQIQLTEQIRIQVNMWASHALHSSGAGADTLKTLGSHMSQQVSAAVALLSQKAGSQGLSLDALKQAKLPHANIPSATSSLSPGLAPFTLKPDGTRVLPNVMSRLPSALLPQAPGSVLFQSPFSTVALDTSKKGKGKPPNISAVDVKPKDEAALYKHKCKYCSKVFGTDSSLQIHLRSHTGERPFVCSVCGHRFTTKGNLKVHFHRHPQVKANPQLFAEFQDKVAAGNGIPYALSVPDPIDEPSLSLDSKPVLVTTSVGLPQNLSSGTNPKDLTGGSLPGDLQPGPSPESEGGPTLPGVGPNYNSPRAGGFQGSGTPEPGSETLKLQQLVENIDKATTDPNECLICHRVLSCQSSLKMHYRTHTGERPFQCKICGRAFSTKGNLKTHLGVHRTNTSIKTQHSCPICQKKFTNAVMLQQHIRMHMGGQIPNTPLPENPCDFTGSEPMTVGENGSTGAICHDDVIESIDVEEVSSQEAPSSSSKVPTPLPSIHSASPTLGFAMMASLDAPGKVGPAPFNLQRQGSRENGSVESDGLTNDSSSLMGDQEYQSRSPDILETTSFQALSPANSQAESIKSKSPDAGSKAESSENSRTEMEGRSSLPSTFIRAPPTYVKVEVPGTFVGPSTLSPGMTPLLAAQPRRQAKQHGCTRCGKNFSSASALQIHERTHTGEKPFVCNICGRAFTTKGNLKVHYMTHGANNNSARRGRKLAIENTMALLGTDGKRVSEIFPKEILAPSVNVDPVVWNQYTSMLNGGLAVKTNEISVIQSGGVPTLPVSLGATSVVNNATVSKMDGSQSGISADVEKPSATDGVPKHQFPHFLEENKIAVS
DNA-binding protein Ikaros: DNA-binding protein Ikaros (Homo sapiens, UniProt Q13422)
Chain of UniProt Q13422 (whole entry, looked up): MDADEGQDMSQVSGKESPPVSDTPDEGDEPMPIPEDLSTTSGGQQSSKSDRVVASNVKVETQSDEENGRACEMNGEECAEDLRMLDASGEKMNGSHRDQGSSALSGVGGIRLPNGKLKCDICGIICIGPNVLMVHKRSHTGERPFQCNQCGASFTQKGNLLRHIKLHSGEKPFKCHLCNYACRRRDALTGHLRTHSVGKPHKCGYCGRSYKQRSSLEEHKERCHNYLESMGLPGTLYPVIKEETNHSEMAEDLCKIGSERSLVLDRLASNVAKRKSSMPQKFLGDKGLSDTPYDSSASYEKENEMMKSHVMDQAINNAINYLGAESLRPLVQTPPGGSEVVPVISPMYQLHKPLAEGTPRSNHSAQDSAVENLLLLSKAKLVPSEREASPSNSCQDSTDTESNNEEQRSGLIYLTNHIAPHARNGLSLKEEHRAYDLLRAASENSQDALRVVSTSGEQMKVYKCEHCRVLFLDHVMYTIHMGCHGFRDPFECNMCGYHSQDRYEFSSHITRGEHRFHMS
Zinc finger protein Aiolos: Zinc finger protein Aiolos (Homo sapiens, UniProt Q9UKT9)
Chain of UniProt Q9UKT9 (whole entry, looked up): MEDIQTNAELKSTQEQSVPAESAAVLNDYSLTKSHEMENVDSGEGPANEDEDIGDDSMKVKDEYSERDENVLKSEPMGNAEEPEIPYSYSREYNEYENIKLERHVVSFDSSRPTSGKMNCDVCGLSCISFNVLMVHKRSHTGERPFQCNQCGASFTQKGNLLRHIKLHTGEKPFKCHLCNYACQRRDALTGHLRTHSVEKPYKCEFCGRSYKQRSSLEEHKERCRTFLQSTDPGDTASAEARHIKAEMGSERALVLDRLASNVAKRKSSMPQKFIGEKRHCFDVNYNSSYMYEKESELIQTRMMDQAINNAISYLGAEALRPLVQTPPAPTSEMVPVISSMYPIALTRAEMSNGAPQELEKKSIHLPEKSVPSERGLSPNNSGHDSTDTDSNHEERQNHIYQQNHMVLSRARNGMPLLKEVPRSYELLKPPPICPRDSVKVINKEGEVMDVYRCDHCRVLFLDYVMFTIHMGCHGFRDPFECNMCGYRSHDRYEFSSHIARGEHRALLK
GSPT1: Eukaryotic peptide chain release factor GTP-binding subunit ERF3A (GSPT1, Homo sapiens, UniProt P15170)
Chain of UniProt P15170 (whole entry, looked up): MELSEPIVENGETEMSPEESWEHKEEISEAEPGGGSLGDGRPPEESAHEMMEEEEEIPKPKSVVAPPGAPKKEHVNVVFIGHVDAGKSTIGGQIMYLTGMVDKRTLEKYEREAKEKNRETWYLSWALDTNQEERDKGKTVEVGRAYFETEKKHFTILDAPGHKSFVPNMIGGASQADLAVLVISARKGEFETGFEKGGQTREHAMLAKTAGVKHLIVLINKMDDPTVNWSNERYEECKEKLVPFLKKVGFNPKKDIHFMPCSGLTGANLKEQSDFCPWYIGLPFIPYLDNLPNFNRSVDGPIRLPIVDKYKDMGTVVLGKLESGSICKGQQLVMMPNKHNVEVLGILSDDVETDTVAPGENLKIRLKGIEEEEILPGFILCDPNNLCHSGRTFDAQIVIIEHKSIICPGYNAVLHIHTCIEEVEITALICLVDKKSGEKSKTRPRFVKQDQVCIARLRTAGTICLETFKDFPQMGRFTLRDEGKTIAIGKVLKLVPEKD
CSNK1A1: Casein kinase I isoform alpha (CSNK1A1, Homo sapiens, UniProt P48729)
Chain of UniProt P48729 (whole entry, looked up): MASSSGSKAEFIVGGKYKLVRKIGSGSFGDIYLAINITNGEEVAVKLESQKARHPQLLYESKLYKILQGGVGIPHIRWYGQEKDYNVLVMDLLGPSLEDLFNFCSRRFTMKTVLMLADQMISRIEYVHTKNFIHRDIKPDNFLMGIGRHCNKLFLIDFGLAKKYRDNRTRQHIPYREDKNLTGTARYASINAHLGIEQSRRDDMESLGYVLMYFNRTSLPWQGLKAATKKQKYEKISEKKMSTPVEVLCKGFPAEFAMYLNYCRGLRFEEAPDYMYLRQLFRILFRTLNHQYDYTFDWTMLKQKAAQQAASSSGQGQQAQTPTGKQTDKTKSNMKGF
target | conditions | remaining protein [%]
SALL4 | 0.001524 µM | 102
DNA-binding protein Ikaros | 0.01372 µM | 100
DNA-binding protein Ikaros | 0.04115 µM | 104
Zinc finger protein Aiolos | 1.111 µM | 112
DNA-binding protein Ikaros | 3.333 µM | 99.1
Zinc finger protein Aiolos | 0.0005081 µM | 106
SALL4 | 0.3704 µM | 79.6
DNA-binding protein Ikaros | 0.0001694 µM | 101
Zinc finger protein Aiolos | 0.3704 µM | 104
GSPT1 | 0.004572 µM | 108
DNA-binding protein Ikaros | 0.004572 µM | 94.7
SALL4 | 0.1235 µM | 80.9
GSPT1 | 0.01372 µM | 104
CSNK1A1 | 0.1235 µM | 108
Zinc finger protein Aiolos | 0.004572 µM | 95
SALL4 | 0.01372 µM | 82.4
CSNK1A1 | 0.0001694 µM | 105
SALL4 | 3.333 µM | 70.8
DNA-binding protein Ikaros | 0.001524 µM | 104
GSPT1 | 10 µM | 120
Zinc finger protein Aiolos | 10 µM | 105
CSNK1A1 | 0.01372 µM | 110
Zinc finger protein Aiolos | 0.01372 µM | 104
Zinc finger protein Aiolos | 0.04115 µM | 106
DNA-binding protein Ikaros | 1.111 µM | 106

Study 2
SMILES: CCn1cnc2c(Nc3cccc(Cl)c3)nc(N[C@H]3CCCC[C@H]3N)nc21
Effect on: enzyme activity
Mode: inhibitor
Tested at: 0.5 µM
Reference: control
target | remaining activity
Activin receptor type-1 (ACVR1, Homo sapiens, UniProt Q04771) | 92.7%
Dual specificity tyrosine-phosphorylation-regulated kinase 2 (DYRK2, Homo sapiens, UniProt Q92630) | 107%
Tyrosine-protein kinase HCK (HCK, Homo sapiens, UniProt P08631) | 69.6%
Serine/threonine-protein kinase VRK1 (VRK1, Homo sapiens, UniProt Q99986) | 103%
Mitogen-activated protein kinase kinase kinase kinase 5 (MAP4K5, Homo sapiens, UniProt Q9Y4K4) | 91.1%
Insulin receptor-related protein (INSRR, Homo sapiens, UniProt P14616) | 90.7%
Phosphorylase b kinase gamma catalytic chain, liver/testis isoform (PHKG2, Homo sapiens, UniProt P15735) | 85.6%
Mitogen-activated protein kinase kinase kinase 9 (MAP3K9, Homo sapiens, UniProt P80192) | 54.9%
RAF proto-oncogene serine/threonine-protein kinase (RAF1, Homo sapiens, UniProt P04049) | 92.8%
Dual serine/threonine and tyrosine protein kinase (DSTYK, Homo sapiens, UniProt Q6XUX3) | 97.8%
Serine/threonine-protein kinase ULK1 (ULK1, Homo sapiens, UniProt O75385) | 74.5%
Serine/threonine-protein kinase PLK1 (PLK1, Homo sapiens, UniProt P53350) | 86%
Receptor-interacting serine/threonine-protein kinase 2 (RIPK2, Homo sapiens, UniProt O43353) | 70%
Serine/threonine-protein kinase Sgk3 (SGK3, Homo sapiens, UniProt Q96BR1) | 94.3%
Serine/threonine-protein kinase TAO1 (TAOK1, Homo sapiens, UniProt Q7L7X3) | 90.2%
Serine/threonine-protein kinase D3 (PRKD3, Homo sapiens, UniProt O94806) | 90.6%
Platelet-derived growth factor receptor beta (PDGFRB, Homo sapiens, UniProt P09619) | 99.6%
BDNF/NT-3 growth factors receptor (NTRK2, Homo sapiens, UniProt Q16620) | 55.3%

Study 3
Target: Eukaryotic initiation factor 4A-I (EIF4A1, Homo sapiens, UniProt P60842)
Chain of UniProt P60842 (whole entry, looked up): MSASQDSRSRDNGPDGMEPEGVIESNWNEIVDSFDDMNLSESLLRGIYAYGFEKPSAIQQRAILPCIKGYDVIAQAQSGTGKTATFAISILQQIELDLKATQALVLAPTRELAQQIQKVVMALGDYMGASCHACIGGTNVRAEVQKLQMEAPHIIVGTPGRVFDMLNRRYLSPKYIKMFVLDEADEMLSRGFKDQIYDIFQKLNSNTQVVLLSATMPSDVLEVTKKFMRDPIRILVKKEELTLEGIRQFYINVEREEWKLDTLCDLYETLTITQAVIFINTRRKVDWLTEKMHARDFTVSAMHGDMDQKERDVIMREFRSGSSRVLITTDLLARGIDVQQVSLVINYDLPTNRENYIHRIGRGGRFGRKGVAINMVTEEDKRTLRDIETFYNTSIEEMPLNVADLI
Effect on: RNA clamping
Technique: fluorescence polarization
Tested at: concentration not given
Together with: FAM-labelled poly r(AG)8 RNA
Direction: higher = more clamping
SMILES | fluorescence polarization change
COC(=O)[C@H]1[C@H](c2ccccc2)[C@]2(c3ccc(OC)cc3)Oc3cc(OC)cc(OC)c3[C@@]23OC(c2ccccc2)=N[C@@]13O | -1.2 mP
COC(=O)[C@@H]1[C@@H](c2ccccc2)[C@]2(c3ccc(OC)cc3)Oc3cc(OC)cc(OC)c3[C@@]23OC(c2ccc(Cl)cc2)=N[C@@]13O | -0.4 mP
COc1ccc([C@@]23Oc4cc(OC)cc(OC)c4[C@]2(O)c2nc(-c4ccc(C(F)(F)F)cc4)[nH]c(=O)c2[C@H]3c2ccccc2)cc1 | -2.2 mP and 12.9 mP
COc1cc(OC)c2c(c1)O[C@@]1(c3ccc(Br)cc3)[C@H](c3ccccc3)C[C@@H](O)[C@@]21O | 28.7 mP
COC(=O)[C@@H]1[C@@H](c2ccccc2)[C@]2(c3ccc(OC)cc3)Oc3cc(OC)cc(OC)c3[C@@]23OC(c2ccc(OC)cc2)=N[C@@]13O | -7.7 mP
CCOC(=O)[C@H]1[C@@H](c2ccccc2)[C@]2(c3ccc(Br)cc3)Nc3cc(OC)cc(OC)c3[C@@]1(O)[C@H]2O | 14.8 mP
COC(=O)[C@H]1C(=O)[C@@]2(O)c3c(OC)cc(OC)cc3O[C@@]2(c2ccc(OC)cc2)[C@@H]1c1ccccc1 | 52.4 mP
COc1ccc([C@@]23Oc4cc(OC)cc(OC)c4[C@]2(O)c2nc(-c4ccccc4Cl)[nH]c(=O)c2[C@H]3c2ccccc2)cc1 | 32.4 mP
COC(=O)[C@H]1[C@H](c2ccccc2)[C@@]2(c3ccc(Br)cc3)Oc3cc(OC)cc(OC)c3[C@]1(O)[C@H]2O | 10.6 mP

Study 4
Cell line: mouse MPNST tumor cells
Technique: high-content immunofluorescence imaging
Measured: nuclear SOX9
Tested at: 10 µM
Time: 12 h
Setting: mean of 2 replicates
Reference: DMSO control
Direction: higher = more nuclear SOX9
SMILES | nuclear SOX9 intensity
COc1ccc2c(c1)/C(=C/c1cnc[nH]1)C(=O)N2 | 138 % of DMSO
O=c1[nH]c2ccccc2n1C1CCN(CCCC(c2ccc(F)cc2)c2ccc(F)cc2)CC1 | 167 % of DMSO
S=C(NC1CCCCC1)N1CCC(c2cnc[nH]2)CC1 | 102 % of DMSO and 96 % of DMSO
C[N+]1(C)CCOC(O)(c2ccc(-c3ccc(C4(O)C[N+](C)(C)CCO4)cc3)cc2)C1 (centres unmarked) | 93.3 % of DMSO
CCN1C[C@]2(COC(=O)c3ccccc3N3C(=O)C[C@H](C)C3=O)CC[C@H](OC)[C@@]34[C@@H]5C[C@H]6[C@H](OC)[C@@H]5[C@](O)(C[C@@H]6OC)[C@](O)([C@@H](OC)[C@H]23)[C@@H]14 | 95.7 % of DMSO
CCCN1C[C@H](CSC)C[C@@H]2c3cccc4[nH]cc(c34)C[C@H]21 | 132 % of DMSO
Oc1cc(Cl)ccc1Oc1ccc(Cl)cc1Cl | 123 % of DMSO

Repeated from above (study 1):
target | conditions | remaining protein [%]
SALL4 | 0.3704 µM | 79.6
DNA-binding protein Ikaros | 0.04115 µM | 104
CSNK1A1 | 0.0001694 µM | 105
DNA-binding protein Ikaros | 0.01372 µM | 100
DNA-binding protein Ikaros | 1.111 µM | 106
CSNK1A1 | 0.1235 µM | 108
SALL4 | 0.01372 µM | 82.4
SALL4 | 3.333 µM | 70.8
Zinc finger protein Aiolos | 0.0005081 µM | 106
